Published values gathered from unrelated publications.
Each numbered part is a random draw from the data of one study; scales do not carry over between parts. Positions count from the first letter of the parent shown.

Series 1
Target: Phosphate system positive regulatory protein PHO4, full length, GST-tagged (PHO4, Saccharomyces cerevisiae, UniProt P07270, residues 1-312)
Method: competition protein-binding microarray
Form: double-stranded DNA, one strand shown
Medium: in vitro
Tested at: 2 µM
Setting: whole 60-bp probe, lowest competitor level
With: Cbf1 competitor, 0.05 µM
Reading: higher = stronger binding
All sequences stand within: … GTCTTGATTCGCTTGACGCTGCTG
Residues (chain): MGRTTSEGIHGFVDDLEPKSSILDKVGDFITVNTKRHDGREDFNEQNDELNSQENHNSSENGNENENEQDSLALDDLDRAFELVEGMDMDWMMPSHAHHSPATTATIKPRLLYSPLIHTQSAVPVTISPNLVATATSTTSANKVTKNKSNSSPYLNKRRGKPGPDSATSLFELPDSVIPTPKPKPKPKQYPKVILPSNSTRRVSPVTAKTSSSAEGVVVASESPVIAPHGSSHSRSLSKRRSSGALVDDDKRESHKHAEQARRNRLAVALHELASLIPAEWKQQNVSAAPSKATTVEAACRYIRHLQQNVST
Strand | fluorescence intensity
AAAGCGGTAATTTTTCACGTGGGCTCACATATCTAT | 13900 a.u.
TGCGCAACAACTTTTCACGTGGGTTTATGTCTAGAA | 13200 a.u.
CTCAGTACTGATTGACACATGATTATACTGCGAGAC | 7250 a.u.
CGGTATGTTCCGAGCCGCGTGCCGAAGGAGGGCAAA | 8940 a.u.
CGTCCTAGCGATTGAACCGTGGGTGCCATGAGGAAG | 9330 a.u.
CGACTTTTTTCTTTTCACCTGCAGCTTGAGCCAAAC | 3470 a.u.
TGCAAGAGAAAAAGTTGCGTGCGATACTGCCTAGGA | 5700 a.u.
CCGGTTAACGTTGTGGACGTGTTGGCGATGCCTCAA | 5010 a.u.
TCATACATGTCATTGCACATGAGCATTGTAACCGGT | 6820 a.u.

Series 2
Target: CCNE1, cyclin fold, Cln2 fusion (human)
Method: yeast growth competition, sequencing
Medium: yeast
Setting: weak parent motif
Reference: not given
Reading: higher = stronger binding
Starting sequence: SLBP docking peptide (human); ARYKRKLLINDFG
Change | normalised enrichment score
L8I | 0.371
Y3C | 0.148
L8W | 1.46
R2L | 0.482
K4F | 0.822
L7C | 0.107
N10E | 0.936
I9R | 0.705

Series 3
Target: Sox-I, HMG box (Salpingoeca helianthica)
Method: Spec-seq
Form: double-stranded DNA, one strand shown
Medium: in vitro
Tested at: not given
Setting: whole probe, mean of replicates
Reference: not given
Reading: lower = stronger binding
All sequences stand within: GAGTCGTCTCGTCAGCAC … CCGTAGAGCACTCAGGTC
Target sequence (chain): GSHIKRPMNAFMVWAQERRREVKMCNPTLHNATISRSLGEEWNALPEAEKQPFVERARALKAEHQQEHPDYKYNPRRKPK
Strand | relative binding energy
GCACGTT | 0.639 ln ratio
TTAGGTT | 0.668 ln ratio
CTAGGTT | 0.979 ln ratio
GTCCGTT | 0.889 ln ratio
GGAGGTT | 1.18 ln ratio
CATTGCC | 0.953 ln ratio
TTGAGTT | 0.912 ln ratio
CATTTCT | 0.625 ln ratio
CTGGGTT | 1.13 ln ratio

Single results of other studies
Substance | target | assay | system | conditions | how to read | measurement | value
PhoQ, residues 284 288 289 292 302 303 SLANKL | PhoP, residues 12 14 15 18 19 TQAIL (Escherichia coli, UniProt P23836) | Sort-seq, item: YFP reporter | E. coli | PhoQ-PhoP variant library, with: 10 µM Mg2+ | reference: high Mg2+ state, higher = stronger signaling | fold induction | 4.72

For quick reference, copied from above (series 1):
Strand | fluorescence intensity
AAAGCGGTAATTTTTCACGTGGGCTCACATATCTAT | 13900 a.u.
CCGGTTAACGTTGTGGACGTGTTGGCGATGCCTCAA | 5010 a.u.
